Results gathered from unrelated publications.
A part holds a random share of what one study measured.

Series 1
Target: Interferon regulatory factor 5, full length, phosphomimetic (IRF5, Homo sapiens, UniProt Q13568-2, residues 1-514, S451D/S453D/S456D/S462D)
Method: protein-binding microarray
Form: double-stranded DNA, one strand shown
Medium: in vitro
Tested at: 940 nM top
Setting: 60-bp whole probe
Added: salmon DNA 0.4 mg/ml
Reference: random background probes
Reading: higher = stronger binding
Constant ends, left off below: GCCTAGCAC … GTCTTGATTCGCTTGACGCTGCTG
`GACGATTCCAATTTCGAGACGTGCTAG`: “fitted relative affinity” 0.868 z-score.
Under “fitted relative affinity”, `TTAGGTATCGGTCTCCGTTAGTGCTAG` is recorded as 10.4 z-score.
`TTAGGTTCCGGTTTCGGCTAGTGCTAG` — result for “fitted relative affinity”: 6.6 z-score.
`GACTGTATCGGGTATCGGGACGTGCTA`: “fitted relative affinity” 2.24 z-score.
`GACGGACGGGGGTATCGGGACGTGCTA`: “fitted relative affinity” 3.1 z-score.
`TCACATTTCCAATTACCACTGTGCTAG`: “fitted relative affinity” 0.994 z-score.
`ATATATATATTATATATTTATGTGCTA`: “fitted relative affinity” 0.214 z-score.
Under “fitted relative affinity”, `GACGGTCTCGGAATCGGGACGTGCTAG` is recorded as 1.55 z-score.
`TTAGTTTTCCTTCTCCTTTAGTGCTAG` — result for “fitted relative affinity”: 2.34 z-score.
`TTAGGACTGGGGACTGGATTAGTGCTA`: “fitted relative affinity” -0.0229 z-score.
`TTAGGTGTCGGTCTCGGTTAGTGCTAG`: “fitted relative affinity” 3.03 z-score.
`GACGATTTCGGGACTGGAGAGGTGCTA`: “fitted relative affinity” -0.232 z-score.
For `ATAGGTATCGGTCTCGGTTAGTGCTAG`, “fitted relative affinity” read 8.9 z-score.
For `GACGATAGCAGTATCGAGACGTGCTAG`, “fitted relative affinity” read 1.04 z-score.
For `TTAGGTTTCGGTATTGGTTAGTGCTAG`, “fitted relative affinity” read 13.2 z-score.
`TCATCTTCCCCTCTCATACTGTGCTAG` — result for “fitted relative affinity”: 1.35 z-score.
`TTAGGTTTCGGACTGGGTTCGTGCTAG`: “fitted relative affinity” 7.79 z-score.
Under “fitted relative affinity”, `TCCTTTATGTCCTGTCTACATGTGCTA` is recorded as 0.914 z-score.
Under “fitted relative affinity”, `TTAGGTCTCGGACTTGGTTAGTGCTAG` is recorded as 0.917 z-score.

Series 2
Target: TAR DNA-binding protein 43, full length, His tag (TARDBP, Homo sapiens, UniProt Q13148, residues 1-414)
Method: RNA Bind-n-Seq
Form: RNA
Medium: in vitro
Tested at: 20 nM
Setting: 6-mer, flanks averaged, single round
Added: 150 mM KCl
Reference: input library
Reading: higher = stronger binding
`CCGUUG` — result for “6-mer enrichment (R)”: 0.745.
Under “6-mer enrichment (R)”, `GACAGG` is recorded as 1.96.
`GGUAGU`: “6-mer enrichment (R)” 1.42.
`GAACAA`: “6-mer enrichment (R)” 0.796.
For `GAAGCG`, “6-mer enrichment (R)” read 1.79.
`ACCACC` — result for “6-mer enrichment (R)”: 0.655.
Under “6-mer enrichment (R)”, `AGUACG` is recorded as 0.919.
Under “6-mer enrichment (R)”, `GACUAG` is recorded as 0.971.
`AGCAUA` — result for “6-mer enrichment (R)”: 0.657.
`AAUUAG`: “6-mer enrichment (R)” 0.681.
For `GUAUGG`, “6-mer enrichment (R)” read 1.79.
`GCAUUG` — result for “6-mer enrichment (R)”: 0.85.
`CCUUGU`: “6-mer enrichment (R)” 0.715.
`AUGUAU` — result for “6-mer enrichment (R)”: 0.833.
`AUUGCC`: “6-mer enrichment (R)” 0.618.
`AGAUCC`: “6-mer enrichment (R)” 0.618.
For `GAUUCC`, “6-mer enrichment (R)” read 0.592.
`UAACCU` — result for “6-mer enrichment (R)”: 0.586.
`AAAGUA`: “6-mer enrichment (R)” 0.65.
`UAUGAU`: “6-mer enrichment (R)” 0.694.
For `AGAUGG`, “6-mer enrichment (R)” read 1.48.
`GUGCUC`: “6-mer enrichment (R)” 0.772.
For `GAACCG`, “6-mer enrichment (R)” read 0.967.

Series 3
Target: Ras GTPase-activating protein-binding protein 1, full length (G3BP1, Homo sapiens, UniProt Q13283)
UniProt Q13283, sequence (whole entry, looked up): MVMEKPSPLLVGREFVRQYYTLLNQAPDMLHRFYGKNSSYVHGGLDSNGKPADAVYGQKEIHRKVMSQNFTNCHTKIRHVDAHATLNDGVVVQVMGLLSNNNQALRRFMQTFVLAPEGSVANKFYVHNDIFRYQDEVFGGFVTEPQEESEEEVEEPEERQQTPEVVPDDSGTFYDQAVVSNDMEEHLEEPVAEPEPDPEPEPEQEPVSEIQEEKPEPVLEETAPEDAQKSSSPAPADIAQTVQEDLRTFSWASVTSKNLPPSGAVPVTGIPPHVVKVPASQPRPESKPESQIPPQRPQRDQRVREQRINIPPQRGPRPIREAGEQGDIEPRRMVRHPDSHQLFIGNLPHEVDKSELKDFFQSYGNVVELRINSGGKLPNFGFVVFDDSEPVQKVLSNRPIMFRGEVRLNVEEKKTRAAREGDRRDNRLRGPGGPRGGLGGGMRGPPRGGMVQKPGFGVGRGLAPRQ
Method: RNA Bind-n-Seq
Form: RNA
Medium: in vitro
Tested at: 200 nM
Setting: whole 134-nt RNA, ends assumed
Added: 150 mM LiCl
Reference: input library
Reading: higher = stronger binding
Each molecule: 7-deaza-guanosine replaces G
For `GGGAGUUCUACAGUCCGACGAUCGUGCUACACAUCGUAUGUACCGAAUCGGGGAAAAAAAGGGGUUUUUUUGGGGAAAAAAAGGGGAAAGUAUUAUGUUACGCCGUUCGGAUCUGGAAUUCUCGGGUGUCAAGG`, the log2 enrichment was -1.1.
The log2 enrichment of `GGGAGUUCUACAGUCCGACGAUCGCGGGAAGUAAAAACAAAUGGAAAUGCUUCGGAUAGUGGCAGGGGUGGGGGUUGCUAAGGAAAGGGUGGGAUGGGAGUGGGUAAAGAGUUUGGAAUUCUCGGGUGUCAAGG` is reported as -0.224.
For `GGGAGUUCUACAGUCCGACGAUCUAACUUUAGAGGAGGAUCUGAUGGAUAUGGCAGUGGACGUGGAUUUGGGGAUGGCUAUAAAGGGUAUGGAGGAGGACCUGGAGGUGGCAAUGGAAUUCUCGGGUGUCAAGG`, the log2 enrichment was -0.381.
`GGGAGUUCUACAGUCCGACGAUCUAACUUUAGAGGAGGAUCUGAUGGAUAUGGCAGUGGACGUGGAUUUGGGGAUGGGUAUAAUGGGUAUGGAGGAGGACCUGGAGGUGGCAAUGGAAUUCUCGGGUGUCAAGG` gave a log2 enrichment of 0.497.
With `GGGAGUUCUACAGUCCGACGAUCUCCUCAAGUCCUGUGCUACACAUCGUAUGUACCGAAUCGGCGGGGCGGGCGGAAAGUAUUAUGUUACGCCGUUCGGAUCUGCACUUCCAGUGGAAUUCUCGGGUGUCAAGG` the log2 enrichment was 0.784.
`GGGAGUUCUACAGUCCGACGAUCUCAAGUCCUGUGCUACACAUCGUAUGUACCGAAUCGGGAAAGGGAAAGGGAAAGGAAAGUAUUAUGUUACGCCGUUCGGAUCUGCACUUCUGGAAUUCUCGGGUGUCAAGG` gave a log2 enrichment of -0.698.
The log2 enrichment of `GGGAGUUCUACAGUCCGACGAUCAAGUCCUGUGCUACACAUCGUAUGUACCGAAUCGGAAAAGGGAAAAGGGAAAAGGGAAAGUAUUAUGUUACGCCGUUCGGAUCUGCACUUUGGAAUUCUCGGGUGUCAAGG` is reported as -0.39.
`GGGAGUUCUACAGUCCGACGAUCUUCUUGCCUAUGCUGUGCGCCACACCAUCCAGGUGUACCGGCUCUCCAAGUACAACACGGAAGAAUUCAUCACAGUCUACCCCACCGACCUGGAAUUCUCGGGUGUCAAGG` gave a log2 enrichment of 0.968.

Series 4
Target: RING finger protein unkempt homolog, zinc fingers 1-6, GST-SBP tag (UNK, Homo sapiens, UniProt Q9C0B0, residues 30-357)
UniProt Q9C0B0, sequence (30-357, looked up): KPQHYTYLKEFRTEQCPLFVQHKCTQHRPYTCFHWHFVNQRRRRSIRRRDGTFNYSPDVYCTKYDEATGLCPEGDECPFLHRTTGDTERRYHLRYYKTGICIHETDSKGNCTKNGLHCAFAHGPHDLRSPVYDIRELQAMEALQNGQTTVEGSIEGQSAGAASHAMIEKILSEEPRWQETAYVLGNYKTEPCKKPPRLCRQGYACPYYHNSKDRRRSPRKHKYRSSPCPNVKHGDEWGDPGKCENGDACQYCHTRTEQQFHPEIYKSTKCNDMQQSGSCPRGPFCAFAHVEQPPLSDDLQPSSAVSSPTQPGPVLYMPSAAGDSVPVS
Method: RNA Bind-n-Seq
Form: RNA
Medium: in vitro
Tested at: not given
Setting: RNA with constant flanks, human-mouse chimeric sites, ends assumed
Reference: input RNA pool
Reading: higher = stronger binding
With `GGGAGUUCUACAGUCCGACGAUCCUGAGGAUACCACUGAAGAGACCUUAAAAGAAUCAUUUGAGGGCUCUCGUUCGGGCAAGGAUAGUUAUGAUCGGGAAACUGGUUCUUCCAAAGGGUUUGGUUUUGUAGACUUUAAUAGUGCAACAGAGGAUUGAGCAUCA` the bound/input enrichment was 0.979 ratio.
For `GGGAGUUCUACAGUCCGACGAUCGCUCUUGGGAAUGUAAUCAGCGCCUUGGGGGACAAGAGCAAGAGAGCCACACAUGUCCCUUACAGAGACUCUAAGCUGACAAGACUCUUGCAGGAUUCCCUUGGGGGUAAUAGCCAAACCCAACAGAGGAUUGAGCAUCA`, the bound/input enrichment was 0.133 ratio.
The bound/input enrichment of `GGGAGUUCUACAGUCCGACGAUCAAAGCCCAAGUAUUUUGAAAAAACUCGAACAGAUUUGACAAGGGUAGCCAGCUUGGAGUCUAGCAACUUUGCCAAUGGUUUACCAAUUUUGGGGGCUGUUUUUCUUUUCUUCUUUCAAAUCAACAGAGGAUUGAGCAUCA` is reported as 0.36 ratio.
For `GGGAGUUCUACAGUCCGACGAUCGAUCAUGGAACCAGAAUAGAAAUGAAGAUGAGAUUACCCAGACGAGCCAAAACAGCUGCGCUACAGAAAAGUAAACUUAACCUUGCAGAGUUCCUUAAAUGAAGAUCAAGUUAAGAGAGCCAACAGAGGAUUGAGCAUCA`, the bound/input enrichment was 0.908 ratio.
With `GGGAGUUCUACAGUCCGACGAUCCAGGGCAUCAUCUCUCGUGCUGUUAGACACCUGUUCAAGAGUAUUGAAGAAAAAAAAACCUCAGCGAUUAAAAACGGGCUGCCCCCUCCUGAAUUCAAAGUGAAUGCCCAAUUCUUAGAGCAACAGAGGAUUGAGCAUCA` the bound/input enrichment was 0.808 ratio.
`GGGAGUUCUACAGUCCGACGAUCCGCUGGCCCAAGCUGAUGGACUCUGAUGGCCUCCAUCUCUCAGGCACGUGUGCCUUCUCUUAGUCCCUUCUGGGUUGAUGUUAUGAAUCUCAGUACUGUUUGACAGAAGCACCAGCUUUGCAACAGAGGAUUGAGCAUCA` gave a bound/input enrichment of 0.309 ratio.
With `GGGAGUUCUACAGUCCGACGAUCUGUAACUUAUCUGUAAAAAAGGUUUCUCCCCUACUGUCAAAAAAUAUGCAUGUAUAGUAAUUAGGACUUCAUUCCUCCAUGUUUUCUUCCCUUAUCUUACUGUCAUUGUCCUUAAACCUUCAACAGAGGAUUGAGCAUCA` the bound/input enrichment was 1.25 ratio.
For `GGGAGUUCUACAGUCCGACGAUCCCUGCUCAGAUCACCAUGAAAGUAAUCCAAGGCCUAUAUAGUGGGGUCACCACAGUGGAACUGGACACCCUGGCUGCUGAAACAGCUGCGACCUUGACUACUAAGCACCCUGACUAUGCCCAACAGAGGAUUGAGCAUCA`, the bound/input enrichment was 0.133 ratio.

A few entries again (series 1):
`TTAGGTTTCGGACTGGGTTCGTGCTAG`: “fitted relative affinity” 7.79 z-score.
`TTAGGTGTCGGTCTCGGTTAGTGCTAG`: “fitted relative affinity” 3.03 z-score.
`GACGGACGGGGGTATCGGGACGTGCTA`: “fitted relative affinity” 3.1 z-score.
Under “fitted relative affinity”, `TTAGGTATCGGTCTCCGTTAGTGCTAG` is recorded as 10.4 z-score.
